{"data": "Measurements collected from several papers", "gag-pol integrase": "Gag-Pol polyprotein, integrase (gag-pol, Human immunodeficiency virus type 1 group M subtype B, UniProt P04585)", "F fusion protein": "Fusion glycoprotein F0, fusion protein (F, Parainfluenza virus 5, UniProt P04849)", "note": "Lines come from different studies, so protocols differ. Numbers after ± are the reported error."}
{"Structure (SMILES)": "CC[C@H](C)[C@@H]1NC(=O)[C@@H]2CCCN2C(=O)[C@H](C)NC(=O)[C@H](CC(C)C)NC(=O)[C@@H]2CCCN2C(=O)[C@H](C)NC(=O)[C@@H]2CSSC[C@H](NC(=O)[C@H](C)NC(=O)[C@H](C)NC(=O)[C@H](Cc3ccc(O)cc3)NC(=O)[C@@H]3CCCN3C(=O)CNC(=O)[C@H](Cc3c[nH]c4ccccc34)NC1=O)C(=O)N[C@@H](CC(C)C)C(=O)N[C@@H](CO)C(=O)N[C@@H](C)C(=O)N[C@H]1CSSC[C@H](NC(=O)[C@H](C(C)C)NC(=O)[C@@H]3CCCN3C(=O)CNC(=O)CNC(=O)CNC(=O)[C@H](C)NC(=O)[C@H](C)NC(=O)[C@H](CC(C)C)NC1=O)C(=O)N[C@@H](CC(C)C)C(=O)N[C@@H](C)C(=O)N[C@@H](C(C)C)C(=O)N2", "target": "ACHE (Homo sapiens, UniProt P22303)", "test": "enzyme activity, inhibitor", "IC50": "> 45800 nM"}
{"Structure (SMILES)": "CC(C)C[C@H](NC(=O)[C@H](CCCCN)NC(=O)[C@H](CC(C)C)NC(=O)[C@]1(C)CCCC=CCCC[C@](C)(N)C(=O)N[C@@H](C)C(=O)N[C@@H](Cc2ccc(O)cc2)C(=O)N[C@@H](Cc2ccccc2)C(=O)N1)C(=O)N[C@@H](C)C(=O)NCC(=O)N[C@@H](CCCNC(=N)N)C(=O)N[C@@H](Cc1c[nH]c2ccccc12)C(N)=O", "target": "gag-pol integrase", "test": "integrase strand transfer, inhibitor", "IC50": "19000 ± 10000 nM"}
{"Structure (SMILES)": "CC[C@H](C)[C@H](N)C(=O)N[C@@H](CC(N)=O)C(=O)N[C@@H](CC(N)=O)C(=O)N[C@H](C(=O)N1C[C@@H](n2cc([C]34[CH]5[CH]6[CH]7[CH]3[Fe]6754389%10[CH]4[CH]3[CH]8[CH]9[CH]4%10)nn2)C[C@H]1C(=O)N[C@@H](Cc1ccc(O)cc1)C(N)=O)[C@@H](C)CC (some centres unmarked)", "target": "Envelope glycoprotein gp160, gp120 (env, Human immunodeficiency virus type 1 group M subtype B, UniProt P35961, W111A)", "test": "binding to soluble CD4, inhibitor, competition SPR", "conditions": "gp120 W112A mutant", "IC50": "> 50000 nM"}
{"Structure (SMILES)": "CC(C)C[C@H](NC(=O)[C@H](Cc1ccccc1)NC(=O)[C@H](Cc1ccc(O)cc1)NC(=O)[C@H](C)NC(=O)[C@@H](N)[C@@H](C)O)C(=O)N[C@@H](CC(C)C)C(=O)N[C@@]1(C)CCCC=CCCC[C@@](C)(C(=O)N[C@@H](Cc2c[nH]c3ccccc23)C(N)=O)NC(=O)CNC(=O)[C@H](C)NC(=O)[C@H](CC(C)C)NC1=O", "target": "gag-pol integrase", "test": "integrase strand transfer, inhibitor", "IC50": "> 100000 nM"}
{"Structure (SMILES)": "CN(C)S(=O)(=O)c1cc(O)c(O)c2c1CN(Cc1ccc(F)c(Cl)c1)C2=O", "target": "Gag-Pol polyprotein, integrase (gag-pol, Human immunodeficiency virus 1, UniProt P12497, Y1290R)", "test": "enzyme activity, inhibitor", "IC50": "200 ± 20 nM"}
{"Structure (SMILES)": "C=CCCC[C@H](NC(=O)[C@H](C)NC(=O)[C@H](CCC(=O)O)NC(C)=O)C(=O)N[C@H](C(=O)N[C@@H](CCCNC(=N)N)C(=O)N[C@H](C(=O)N[C@@H](CCCC=C)C(=O)N[C@@H](CCC(N)=O)C(=O)N[C@@H](CCC(N)=O)C(=O)N[C@@H](CC(C)C)C(=O)N[C@@H](CC(C)C)C(=O)N[C@@H](Cc1ccccc1)C(=O)N[C@H](C(=O)N[C@@H](Cc1c[nH]cn1)C(=O)N[C@@H](Cc1ccccc1)C(=O)N[C@@H](CCCNC(=N)N)C(=O)N[C@H](C(=O)NCC(N)=O)[C@@H](C)CC)[C@@H](C)CC)[C@@H](C)CC)[C@@H](C)CC", "target": "gag-pol integrase", "test": "strand transfer, inhibitor", "system": "HIV-1", "IC50": "4400 ± 400 nM"}
{"Structure (SMILES)": "C[C@H](NC(=O)[C@H](C)NC(=O)[C@@H]1CCCN1C(=O)[C@@H](N)Cc1ccc(O)cc1)C(=O)N[C@@H](CO)C(=O)N[C@@H](Cc1ccc(O)cc1)C(=O)N[C@@H](CCCNC(=N)N)C(=O)O", "target": "Protein Rev (Human immunodeficiency virus type 1 group M subtype B, UniProt P04618)", "test": "ligand displacement, FP", "IC50": "179 nM"}
{"Structure (SMILES)": "CC[C@H](C)[C@H](NC(=O)[C@H](C)NC(=O)[C@H](CO)NC(=O)[C@H](CC(C)C)NC(=O)[C@H](Cc1ccc(O)cc1)NC(=O)[C@@H](NC(=O)[C@H](CC(=O)O)NC(=O)[C@H](CO)NC(=O)[C@H](CCC(N)=O)NC(=O)[C@H](C)NC(=O)[C@H](CC(C)C)NC(=O)[C@H](Cc1c[nH]cn1)NC(=O)[C@H](CCC(N)=O)NC(=O)[C@H](CC(C)C)NC(=O)[C@H](C)NC(=O)[C@H](CC(=O)O)NC(=O)[C@H](CO)NC(=O)[C@H](CC(C)C)NC(=O)[C@H](CO)NC(=O)[C@H](CCCCN)NC(=O)[C@H](CC(N)=O)NC(=O)[C@@H](NC(=O)[C@H](C)NC(=O)[C@H](C)NC(=O)[C@H](CC(C)C)NC(=O)[C@H](CC(N)=O)NC(=O)[C@H](CCC(N)=O)NC(=O)[C@H](CO)NC(=O)[C@@H](NC(=O)[C@H](CC(=O)O)NC(=O)CNC(=O)[C@@H]1CCCN1C(=O)[C@H](CC(=O)O)NC(=O)[C@@H](NC(=O)[C@H](CO)NC(=O)[C@H](CC(C)C)NC(=O)[C@@H](NC(=O)[C@H](CCC(N)=O)NC(=O)[C@H](CO)NC(=O)[C@H](CO)NC(=O)[C@H](CCC(=O)O)NC(=O)[C@H](CC(C)C)NC(=O)[C@@H](N)CCCCN)[C@@H](C)CC)[C@@H](C)CC)[C@@H](C)CC)C(C)C)[C@@H](C)O)C(=O)O", "target": "F fusion protein", "test": "cell-cell fusion, inhibitor, luciferase reporter", "system": "Vero plus BSR-T7 cells", "conditions": "6 h, 37 °C, added: SV5 F and HN", "IC50": "150 ± 19 nM"}
{"Structure (SMILES)": "CC(=O)NCCCC[C@@H](NC(=O)[C@@H](N)Cc1ccc(O)cc1)C(=O)N[C@@H](Cc1ccccc1)C(=O)NCC(=O)N[C@@H](Cc1ccc(O)cc1)C(=O)N1CCC[C@H]1C(=O)N[C@@H](CO)C(N)=O", "target": "Oprd1 (Mus musculus, UniProt P32300)", "test": "radioligand binding", "system": "CHO cells", "conditions": "added: 0.15 nM [3H]DPDPE", "IC50": "436 ± 34 nM"}
{"Structure (SMILES)": "C=CCCC[C@H](NC(=O)[C@H](CCCNC(=N)N)NC(=O)[C@@H](NC(=O)[C@@H](NC(=O)[C@H](CCCC=C)NC(=O)[C@H](CCC(=O)O)NC(C)=O)[C@@H](C)CC)[C@@H](C)CC)C(=O)N[C@@H](CC(C)C)C(=O)N[C@@H](CCC(N)=O)C(=O)N[C@@H](CCC(N)=O)C(=O)N[C@@H](CC(C)C)C(=O)N[C@@H](CC(C)C)C(=O)N[C@@H](Cc1ccccc1)C(=O)N[C@H](C(=O)N[C@@H](Cc1c[nH]cn1)C(=O)N[C@@H](Cc1ccccc1)C(=O)N[C@@H](CCCNC(=N)N)C(=O)N[C@H](C(=O)NCC(N)=O)[C@@H](C)CC)[C@@H](C)CC", "target": "gag-pol integrase", "test": "3′-end processing, inhibitor", "system": "HIV-1", "IC50": "5200 ± 500 nM"}
{"Structure (SMILES)": "CC[C@H](C)[C@H](NC(=O)[C@H](C)NC(=O)[C@H](CO)NC(=O)[C@H](CC(C)C)NC(=O)[C@H](Cc1ccc(O)cc1)NC(=O)[C@@H](NC(=O)[C@H](CC(=O)O)NC(=O)[C@H](CO)NC(=O)[C@H](CCC(N)=O)NC(=O)[C@H](C)NC(=O)[C@H](CC(C)C)NC(=O)[C@H](Cc1c[nH]cn1)NC(=O)[C@H](CCC(N)=O)NC(=O)[C@H](CC(C)C)NC(=O)[C@H](C)NC(=O)[C@H](CC(=O)O)NC(=O)[C@H](CO)NC(=O)[C@H](CC(C)C)NC(=O)[C@H](CO)NC(=O)[C@H](CCCCN)NC(=O)[C@H](CC(N)=O)NC(=O)[C@@H](NC(=O)[C@H](C)NC(=O)[C@H](C)NC(=O)[C@H](CC(C)C)NC(=O)[C@H](CC(N)=O)NC(=O)[C@H](CCC(N)=O)NC(=O)[C@H](CO)NC(=O)[C@H](CC(C)C)NC(=O)[C@H](CC(=O)O)NC(=O)[C@H](CC(C)C)NC(=O)[C@@H]1CCCN1C(=O)[C@H](CC(=O)O)NC(=O)[C@@H](NC(=O)[C@H](CO)NC(=O)[C@H](CC(C)C)NC(=O)[C@@H](NC(=O)[C@H](CCC(N)=O)NC(=O)[C@H](CO)NC(=O)[C@H](CO)NC(=O)[C@H](CCC(=O)O)NC(=O)[C@H](CC(C)C)NC(=O)[C@@H](N)CCCCN)[C@@H](C)CC)[C@@H](C)CC)C(C)C)[C@@H](C)O)C(=O)O", "target": "F fusion protein", "test": "cell-cell fusion, inhibitor, luciferase reporter", "system": "Vero plus BSR-T7 cells", "conditions": "6 h, 37 °C, added: SV5 F and HN", "IC50": "54 ± 5 nM"}
{"note": "A few entries again:"}
{"Structure (SMILES)": "CC(C)C[C@H](NC(=O)[C@H](CCCCN)NC(=O)[C@H](CC(C)C)NC(=O)[C@]1(C)CCCC=CCCC[C@](C)(N)C(=O)N[C@@H](C)C(=O)N[C@@H](Cc2ccc(O)cc2)C(=O)N[C@@H](Cc2ccccc2)C(=O)N1)C(=O)N[C@@H](C)C(=O)NCC(=O)N[C@@H](CCCNC(=N)N)C(=O)N[C@@H](Cc1c[nH]c2ccccc12)C(N)=O", "target": "gag-pol integrase", "test": "integrase strand transfer, inhibitor", "IC50": "19000 ± 10000 nM"}
